# Results pooled from the literature.
# Every numbered part comes from another study and shows a few of its results, in no order.

# Set 1 — technique: RNA Bind-n-Seq; molecule type: RNA; matrix: in vitro; tested at: 200 nM; notes: whole 134-nt RNA, ends assumed; together with: 150 mM KCl; reference: input library; direction: higher = stronger binding
# Target: Fragile X messenger ribonucleoprotein 1, C-terminal low-complexity region (Fmr1, Mus musculus, UniProt P35922)
Sequence,log2 enrichment
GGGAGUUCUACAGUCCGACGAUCGCAGGAAGUAAAAACAAAUGGAAAUGCUUCGAAUAGUGGCAGGGGUGGGGGUUGCUAAGGAAAGGGUGGGAUGGGAGUGGGUAAAGAGUUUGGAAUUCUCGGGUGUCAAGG,0.418
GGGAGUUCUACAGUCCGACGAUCGGUGCGGCUCUAUGAGUGGACAACAGAGAAGGAGCUGCGCACUGAGUGCAACCACUACAACAACAUCAUGGCCCUCUACCUGAAGACCAAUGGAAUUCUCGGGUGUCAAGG,-0.00306
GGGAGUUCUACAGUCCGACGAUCCACAGACAACACGCACCCACACAGACACAGAGGGAAGGGGUUGGGAUGGGGACAGGGUGCACAGCCGGGCGGGGUAGGACCCCAGCCCCUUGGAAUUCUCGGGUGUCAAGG,1.28
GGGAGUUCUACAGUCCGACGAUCUCAAGUCCUGUGCUACACAUCGUAUGUACCGAAUCGGGUGGGUUUUUGGGUGGGAAAGUAUUAUGUUACGCCGUUCGGAUCUGCACUUCCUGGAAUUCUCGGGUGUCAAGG,0.932
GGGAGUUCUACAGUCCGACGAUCCAAGUCCUGUGCUACACAUCGUAUGUACCGAAUCGGGAAGGGGAAGGGGAAGGGGAAAGUAUUAUGUUACGCCGUUCGGAUCUGCACUUCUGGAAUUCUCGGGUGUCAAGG,0.713
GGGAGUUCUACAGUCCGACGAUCUGGCCCUGGUGGCAUGCGGGGAGGAAGAGGUGGCCUCAUGGAUCGUGGUGGUCCCGGUGGAAUGUUCAGAGGUGGCCGUGGGGGAGACAGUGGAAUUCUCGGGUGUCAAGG,0.2
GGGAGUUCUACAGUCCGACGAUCAAGUCCUGUGCUACACAUCGUAUGUACCGAAUCGGGUUUUGGGGUUUUGGUUUUGGGAAAGUAUUAUGUUACGCCGUUCGGAUCUGCACUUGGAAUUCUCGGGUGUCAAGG,-0.191
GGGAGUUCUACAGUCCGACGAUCGUCCUGUGCUACACAUCGUAUGUACCGAAUCGGCCCCCCGGGCCCCCCGGGCCCCCCGGAAAGUAUUAUGUUACGCCGUUCGGAUCUGCAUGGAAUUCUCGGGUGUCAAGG,-0.264
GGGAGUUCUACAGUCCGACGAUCCCUGUGCUACACAUCGUAUGUACCGAAUCAAAGUGUGUGUGUGUGAAAUGUGUGUGUGAAAAAAGUAUUAUGUUACGCCGUUCGGAUCUGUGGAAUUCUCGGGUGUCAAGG,-0.548
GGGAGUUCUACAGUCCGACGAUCCUCAAGUCCUGUGCUACACAUCGUAUGUACCGAAUCGGGGUUGGUUGGGUUGGAAAGUAUUAUGUUACGCCGUUCGGAUCUGCACUUCCAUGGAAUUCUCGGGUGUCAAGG,0.231
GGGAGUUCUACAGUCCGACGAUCCUCCUGGAGUGGAUCCGGCGCACCAUCCCCUGGCUGGAGGACCGUGUGCCCCAAAAGACUAUCCAGGAGAUGCAGCAGAAGCUGGAGGACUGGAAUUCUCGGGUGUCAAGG,-1.7
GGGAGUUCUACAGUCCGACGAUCCUCAAGUCCUGUGCUACACAUCGUAUGUACCGAAUCGGGUGGGAAAGGGAGGGAAAGUAUUAUGUUACGCCGUUCGGAUCUGCACUUCCAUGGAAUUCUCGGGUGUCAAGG,1.19
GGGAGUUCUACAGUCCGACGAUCUCAAGUCCUGUGCUACACAUCGUAUGUACCGAAUCGGGCCGGGGCCGGCCGGGGAAAGUAUUAUGUUACGCCGUUCGGAUCUGCACUUCCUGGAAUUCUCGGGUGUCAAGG,-0.171
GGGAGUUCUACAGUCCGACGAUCCAAGUCCUGUGCUACACAUCGUAUGUACCGAAUCGGAAAGGGGAAAGGGGAAAGGGAAAGUAUUAUGUUACGCCGUUCGGAUCUGCACUUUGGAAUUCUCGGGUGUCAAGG,0.145

# Set 2 — technique: protein-binding microarray; molecule type: double-stranded DNA, one strand shown; matrix: in vitro; tested at: 2200 nM top; notes: 60-bp whole probe; together with: salmon DNA 0.4 mg/ml; reference: random background probes; direction: higher = stronger binding; constant ends, left off below: GCCTAGCAC … GTCTTGATTCGCTTGACGCTGCTG
# Target: Interferon regulatory factor 7, full length, phosphomimetic (IRF7, Homo sapiens, UniProt Q92985, residues 1-503, S471D/S472D/S475D/S476D/S477D/S483D/S484D/S487D)
# UniProt Q92985, sequence (whole entry, unmodified, looked up): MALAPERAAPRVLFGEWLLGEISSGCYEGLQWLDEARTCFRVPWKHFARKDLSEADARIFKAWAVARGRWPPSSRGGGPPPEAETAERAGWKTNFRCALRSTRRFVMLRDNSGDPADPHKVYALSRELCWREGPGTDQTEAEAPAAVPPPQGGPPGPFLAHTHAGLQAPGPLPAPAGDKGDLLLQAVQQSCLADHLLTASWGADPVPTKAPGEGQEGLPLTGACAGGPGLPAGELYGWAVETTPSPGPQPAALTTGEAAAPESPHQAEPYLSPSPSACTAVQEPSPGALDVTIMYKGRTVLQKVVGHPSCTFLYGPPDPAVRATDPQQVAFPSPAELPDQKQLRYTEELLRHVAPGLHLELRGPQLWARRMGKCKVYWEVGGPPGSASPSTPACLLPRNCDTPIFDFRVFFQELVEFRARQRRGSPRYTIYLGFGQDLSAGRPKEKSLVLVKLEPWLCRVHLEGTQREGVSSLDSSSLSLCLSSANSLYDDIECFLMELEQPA
Sequence,fitted relative affinity [z-score]
GGCGGTTTCGACTATCGGGACGTGCTA,3.15
TTAGTTTTCGGTCTCGGTTAGTGCTAG,7.18
GGCGGTTTCCTTATCCTGACGTGCTAG,2
GACGGTTTAGGACTGGGGACGTGCTAG,0.267
TGTCCTTTCTCCATGGGTATGTGCTAG,1.78
GACGAACTGAGTATCGAGACGTGCTAG,-0.183
GACGAACTGAGTTTCCAGACGTGCTAG,0.864
GACGGACTGCTTCTCTTGACGTGCTAG,0.547
TTAGGTATCGCACTGGGTTAGTGCTAG,0.448
TCATTTTTTTTTTCATCATTGTGCTAG,2.45
TTAGGTTTCCGTCTCGGTTAGTGCTAG,2.11
GACGGTATCGGTATCGGGAGGTGCTAG,0.156
GACGGTTTCGGACTGAGGACGTGCTAG,3.49
TCAACTTGTCTTTTCACACTGTGCTAG,1.52
AAGTGTTTGGTGTCTTTTGTGGTGCTA,0.65
CTAGGACTGCTACTGCTTTAGTGCTAG,-0.296
GACCGTATCGGGTTTCGGGACGTGCTA,1.64
GACGAGTTCGGGTATCGAGACGTGCTA,0.406
TTAGGACTGGACTTTCGTTTAGTGCTA,4.24
GACGGTCTCGGTATAGGGACGTGCTAG,-0.023
TTAGAACTGGGTACTGGATTAGTGCTA,-0.527
TTAGGTTTCCTACTCCTTTAGTGCTAG,1.82
GAACATACTAGTTTCCATTTGTGCTAG,5.68
AGCAAAAATGATTGGTTGAAGTGCTAG,-1.06
TTAGGTATCGGGTTACGGTTAGTGCTA,1.6

# Set 3 — technique: protein binding microarray; molecule type: double-stranded DNA, one strand shown; matrix: in vitro; tested at: not given; reference: not given; direction: higher = stronger binding
# Target: Histone acetyltransferase KAT6A, both winged helices, GST fusion (KAT6A, Homo sapiens, UniProt Q92794, residues 1-181)
# Notes: 8-mer, flanks averaged, mean of 2 arrays, mostly near background
# Construct (chain): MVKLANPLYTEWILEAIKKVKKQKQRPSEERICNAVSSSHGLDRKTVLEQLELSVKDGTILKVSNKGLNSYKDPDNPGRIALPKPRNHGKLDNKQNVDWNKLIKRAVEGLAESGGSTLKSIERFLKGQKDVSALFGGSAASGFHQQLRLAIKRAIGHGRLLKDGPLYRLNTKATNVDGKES
Sequence,E-score
CCGACGAA,0.159
ACGAGAGC,-0.034
AATCAGCA,-0.11
CGGATGCA,0.0573
CATCCATC,-0.121
AAGCCCTC,-0.0821
AATGCTCC,-0.12
GAAATTCC,0.0114
AGAGTGCG,0.104
AAACCGCT,0.216
AAGTACGG,0.229
CGTGGACC,0.181
CGCCGGGA,0.299
CCAGTAGC,0.0721
CCACCGGA,0.162
AGATATCA,-0.0271
GCAGGCCC,-0.0198
CAATTCCG,0.231
TCGTCTCA,-0.0157
TAGCCAGA,-0.128
CTACGGTC,0.0703
GAAAAAGC,0.175
TAGATGAA,-0.0469
AGAAGCAC,-0.186
CCAGCCGC,0.26

# Set 4 — technique: RNA Bind-n-Seq; molecule type: RNA; matrix: in vitro; tested at: 365 nM; reference: no-protein control; direction: higher = stronger binding
# Target: RNA binding protein fox-1 homolog 2, RRM domain, GST-SBP tag (RBFOX2, Homo sapiens, UniProt O43251-10, residues 100-194)
# Notes: natural RNA segment, single round, ends assumed
# Target sequence (chain): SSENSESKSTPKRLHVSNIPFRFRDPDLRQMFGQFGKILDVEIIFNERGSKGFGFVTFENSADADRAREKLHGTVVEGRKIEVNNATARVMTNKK
Sequence,RBNS enrichment (R)
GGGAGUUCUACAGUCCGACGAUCGUAAAUAUAAAUCUGUCAGCCACUACAGCCAUCAAAAGAGAGCAUCUGGAAGAACAGCCAGCUUGGAAGUUUUACAGCAAUAAUGUUGCAGUGGAAUAUUAUUUGUAGUUUGGAAUUCUCGGGUGCCAA,0.477
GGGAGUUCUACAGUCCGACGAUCAUGUCCAGACCCACAGCAGAGUGAAGUCUGAGUGCUCCUAACAACCCACAGCAGCCACGCUAGAAGCUUAAUGGAUUCGGAGCCCAUGAGAGAAAGAACACAGGCUUCCUUGGAAUUCUCGGGUGCCAA,0.743
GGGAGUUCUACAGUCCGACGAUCGGCUGGGUUGACAGAGUGGUCUGCCUGUUUGUUGUCUGUGCUCAGCUUGCAGAAGCUGCCAGCUGUGCUCACACCACCACCUGGGACAACCACUCGUUGGUCAAGUUCAGUGGAAUUCUCGGGUGCCAA,0.399
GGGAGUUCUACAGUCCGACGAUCUUCCCUGGACUGAGCUCAGCGCAGGCUGUGACCCCAGGAGGGCCCUGCCACGGGCCACUGGCUGCUGGGGACUGGGGACUGGGCAGAGACUGAGCCAGGCAGGAAGGCAGUGGAAUUCUCGGGUGCCAA,0.242
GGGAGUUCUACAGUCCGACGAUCGAAGAGGGAACAAUGGCGUUUUUCGAACUUAUUUCUCUCUAAUCCAGCCUGGAGGAUUUUUAGCCGAAACAGUUGCAUGUGAAGGAUUAUCAGCCAUCUUUGCAUAUCCCUGGAAUUCUCGGGUGCCAA,3.59
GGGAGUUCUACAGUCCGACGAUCCAUUUGACACCUUUUUAAAUAUCAGGACAAGUCUGAAACAAAGUAGUAAAAUGUAUAUAACUCUUACCUGUUGUCAUUCUUUUUCUUUUAAAUUUGUUGCUAAUCUCUGAUGGAAUUCUCGGGUGCCAA,0.411
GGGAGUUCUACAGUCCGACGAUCUGCCUGGGGACCUCAGAUGGGAGGAGUGUGUCAGUUGUACCCCGACAGAAAUGUCUCUGGGAUCUGUGGCUGGCUUGCCCCGGGCAUCUCUCCUUUAAGCUCAAGUUUUGUGGAAUUCUCGGGUGCCAA,0.434
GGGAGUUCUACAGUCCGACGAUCAGGGCAUUUCAAAGUAAUUUUGCCAAAAUUGUCAUAACUGAAUUUUUGCUGUGUGGACUUUCUGAUUUUUUUUUAAUUAUUUUUUUACCUCUAUCUACCAGCUUUAGUUGUGGAAUUCUCGGGUGCCAA,1.65
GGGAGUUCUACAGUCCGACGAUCUAUUUAUUUUAAAUGUUUACAUCUUCUUUAUGUUGUAUCAAGCCUGAAUAGAAACUGAUAGCAUUAAAAUACUCCGUUCCUCUCUCUCUUCUCGCUUCCUUUUUUUUUUUUGGAAUUCUCGGGUGCCAA,1
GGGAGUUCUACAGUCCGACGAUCGCCCAGGUUGGGCAUGACAUUACAACCCCAGCCCUACCUCAUCUGUGCAGAAAGACGCUGAAAGUGCAAAAUGUAUUGGGGAAUAACCUUGUUGAAUCACAAUAAUGGUGUGGAAUUCUCGGGUGCCAA,0.751
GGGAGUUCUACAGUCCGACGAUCUAAUUAAAAAAAUGCCUGUAUGCCUUUUUUUGGUCGGAUUGUAAAUAAAUAUACCAUUGUCCUACUGUUUUGUCUUGAAUCUCAUGCAGGGGUUGGAGGUCUGAGGUGAGUGGAAUUCUCGGGUGCCAA,2.37
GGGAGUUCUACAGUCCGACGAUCUGAGGAAUCGGCGGAUUGUCUGAAUGACACAUAUACAGAGCCCCCACGGAUUUCUGCACACUCUGGGUCUGUGCUGGUGGAACAUUGCCAAUCAGUUCUUAAUGAGGCACUGGAAUUCUCGGGUGCCAA,1.41

# Some of these lines once more (set 2):
Sequence,fitted relative affinity [z-score]
GACGAACTGAGTTTCCAGACGTGCTAG,0.864
AAGTGTTTGGTGTCTTTTGTGGTGCTA,0.65
TCAACTTGTCTTTTCACACTGTGCTAG,1.52
TTAGGTTTCCTACTCCTTTAGTGCTAG,1.82
TGTCCTTTCTCCATGGGTATGTGCTAG,1.78
GACGGACTGCTTCTCTTGACGTGCTAG,0.547
CTAGGACTGCTACTGCTTTAGTGCTAG,-0.296
GACGGTCTCGGTATAGGGACGTGCTAG,-0.023
GGCGGTTTCGACTATCGGGACGTGCTA,3.15
